Results of several laboratories.
Organism: Mycobacterium tuberculosis

The MIC90 of `CCn1cc(C(=O)NCCOCCO)c(=O)c2cc(Cl)c(OCc3ccc(C(F)(F)F)cc3)cc21` is reported as over 125 µM.
`C#CCN(Cc1ccc2nc(N)nc(N)c2c1)c1ccc(C(=O)N[C@@H](CCC(=O)O)C(=O)O)cc1` has an MIC90 of 5 µM (microbial growth; H37RV).
The MIC90 of `CN[C@@H]1[C@H](O)[C@H](NC)[C@H]2O[C@]3(O)[C@H](O[C@@H]2[C@H]1O)O[C@H](C)C[C@H]3NC(=O)Cc1ccccn1` is reported as 3.8 µg/mL (MDR and XDR isolates).
For `Cc1cc(S(=O)(=O)N(C)CC(=O)Nc2ccn(C)c(=O)c2)c2[nH]ncc2c1`, the MIC90 was 3.1 µM (microbial growth; H37RV; 10 days).
With `COC(=O)[C@@H](CCCNC(=O)OC(C)(C)C)NC(=O)c1ccc(NCc2ccc3nc(N)nc(N)c3c2Cl)cc1` the MIC90 was under 0.1 µM (microbial growth; H37RV).
The MIC90 of `O=C(NCCNCCO)c1cn(Cc2ccccc2)c2c(Cl)c(OCc3ccc(C(F)(F)F)cc3)c(Cl)cc2c1=O` is reported as 0.8 to 4 µM.
The MIC90 of `COc1ccc(NC(=O)CN(C)S(=O)(=O)c2cc(C)cnc2N)cc1Cl` is reported as over 100 µM (microbial growth; H37RV; 10 days).
The MIC90 of `C#CCN(Cc1ccc2nc(N)nc(N)c2c1)c1ccc(C(=O)N[C@@H](CCC(=O)OCC)C(=O)OCC)cc1` is reported as under 0.2 µM (pptT knockdown without ATc).
`CN[C@@H]1[C@H](O)[C@H](NC)[C@H]2O[C@]3(O)[C@H](O[C@@H]2[C@H]1O)O[C@H](C)C[C@H]3NC(=O)Cc1ccc(Cl)cn1` gave an MIC90 of 1.9 µg/mL (MDR and XDR isolates).
`COc1cc2c(=O)c(C(=O)NCCNCCO)cn(Cc3ccccc3)c2cc1OCc1ccc(C(F)(F)F)cc1` gave an MIC90 of 5 to 13 µM.
`Cc1cnc(N)c(S(=O)(=O)N(C)CC(=O)Nc2ccc(N3CCN(C)CC3)c(Cl)c2)c1` has an MIC90 of over 100 µM (microbial growth; H37RV; 10 days).
`O=C(NCCNCCO)c1cn(Cc2ccccc2)c2cc(Cl)c(OCc3cccc(Cl)c3)cc2c1=O` gave an MIC90 of 8 to 125 µM.
`CCCCCCCCCC1N=C(N)N=C(N)N1c1ccc(Cl)cc1.Cl` (racemic) has an MIC90 of 1.12 µM (LORA; non-replicating, low oxygen).
`C#CCN(Cc1ccc2[nH]cnc(=O)c2c1)c1ccc(C(=O)N[C@@H](CCC(=O)O)C(=O)O)cc1` has an MIC90 of over 100 µM (pptT knockdown without ATc).
For `Cc1cnc(N)c(S(=O)(=O)N(C)CC(=O)Nc2ccc(OCCN(C)C)c(Cl)c2)c1`, the MIC90 was over 100 µM (microbial growth; H37RV; 10 days).
`Cc1nc2ccc(CN(C)c3ccc(C(=O)N[C@@H](CCC(=O)O)C(=O)O)s3)cc2c(=O)[nH]1` has an MIC90 of over 100 µM (pptT knockdown without ATc).
`Cc1cc(S(=O)(=O)N(C)CC(=O)Nc2ccc(N3CCOCC3)c(Cl)c2)c2[nH]ncc2c1` gave an MIC90 of 12 µM (microbial growth; H37RV; 10 days).
`CN1C/C(=C\c2ccccc2)C2=NN(C(N)=S)[C@H](c3ccccc3)[C@@H]2C1` gave an MIC90 of over 200 µg/mL (H37Rv, Sauton's medium; with: biotin 1 µM).
For `Cc1cc(Nc2nc(N3CC[C@@H](c4ccncc4)C3)ncc2F)[nH]n1`, the MIC90 was 0.11 µM (microbial growth; H37RV).
For `CCOC(=O)CC[C@@H](NC(=O)c1ccc(N(C)Cc2ccc3[nH]c(C)nc(=O)c3c2)s1)C(=O)OCC`, the MIC90 was 43.7 µM (pptT knockdown without ATc).
For `Cc1cnc(N)c(S(=O)(=O)N(C)CC(=O)Nc2ccn(C)c(=O)c2)c1`, the MIC90 was over 100 µM (microbial growth; H37RV; 10 days).
`CCn1cc(C(=O)NCCNCCO)c(=O)c2cc(OCc3cccc(C)c3)c(Cl)cc21` has an MIC90 of 8 to 125 µM.
For `O=c1c2ccccc2[nH]c(=S)n1Cc1cccnc1`, the MIC90 was 3 µM (pptT knockdown without ATc).
With `O=C(NCCNCCO)c1cn(Cc2ccccc2)c2cc(Cl)c(OCc3cccc(C(F)(F)F)c3)cc2c1=O` the MIC90 was 8 to 125 µM.
The MIC90 of `Cc1nc(=O)c2cc(CN(C)c3ccc(C(=O)NCCCC(=O)O)s3)ccc2[nH]1` is reported as over 100 µM (microbial growth; H37RV).
